Results from different studies.
Numbered parts are unrelated; each lists some results of a single study.

Study 1
Target: PABPC1L2, full length, GST fusion (mouse, UniProt A0ABA7IW68)
Method: RNAcompete
Molecule type: RNA
Matrix: in vitro
Concentration: 20 nM
Notes: 7-mer, probes averaged, single round
Relative to: mean of 7-mers
Direction: higher = stronger binding
Residues (chain): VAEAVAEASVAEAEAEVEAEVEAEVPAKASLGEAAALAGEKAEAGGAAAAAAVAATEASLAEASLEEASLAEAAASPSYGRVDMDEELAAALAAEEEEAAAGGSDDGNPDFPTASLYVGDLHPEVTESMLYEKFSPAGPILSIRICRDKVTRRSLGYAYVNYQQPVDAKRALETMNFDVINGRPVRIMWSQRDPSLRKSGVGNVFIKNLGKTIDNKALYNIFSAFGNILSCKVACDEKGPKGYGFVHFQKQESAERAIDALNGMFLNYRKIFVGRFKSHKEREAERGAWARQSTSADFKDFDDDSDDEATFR
| Sequence | 7-mer Z-score |
| --- | --- |
| UGACGCU | -0.211 |
| GGCCGCA | 0.0714 |
| CUCUCUA | -0.296 |
| CACUUGC | -0.244 |
| UCGAUAG | -0.209 |
| AGGUCUA | -0.0844 |

Study 2
Target: Sal-like protein 4, full length isoform B (SALL4, Homo sapiens, UniProt Q9UJQ4-2, residues 1-616)
Method: universal PBM
Molecule type: double-stranded DNA, one strand shown
Matrix: in vitro
Concentration: not given
Notes: 8-mer, flanks averaged, mean of replicates
Direction: higher = stronger binding
| Sequence | E-score |
| --- | --- |
| AACCTCAG | -0.137 |
| CTTGACTC | -0.163 |
| CCGACGAG | -0.192 |
| ACCTGAGC | -0.143 |
| ATGTACAT | 0.326 |
| ACGCGAGA | -0.0742 |
| GACCGCCA | -0.202 |
| CTACTAAA | 0.19 |
| CGCTGTTA | -0.046 |
| CCCAATAG | 0.0548 |

Study 3
Target: Myc proto-oncogene protein, bHLH-zipper, MAX partner unstated (MYC, Homo sapiens, UniProt P01106, residues 368-449)
Sequence of UniProt P01106 (368-449, looked up): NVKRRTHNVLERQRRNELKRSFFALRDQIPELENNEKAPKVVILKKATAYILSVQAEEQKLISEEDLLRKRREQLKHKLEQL
Method: protein-binding microarray
Molecule type: double-stranded DNA, one strand shown
Matrix: in vitro
Concentration: not given
Notes: k-mer, scored over probes, only values ≥0.25
Direction: higher = stronger binding
| Sequence | E-score |
| --- | --- |
| CACATGTG | 0.482 |
| ACACCATG | 0.367 |
| ACGCATGC | 0.455 |
| CATGCTCG | 0.388 |
| CGGACACA | 0.256 |
| CGTGCATA | 0.313 |

Mixed results
| Molecule | target | assay | test system | conditions | how to read | measurement | result |
| --- | --- | --- | --- | --- | --- | --- | --- |
| PhoQ, residues 284 288 289 292 302 303 NLCILV | PhoP, residues 12 14 15 18 19 LYFRQ (Escherichia coli, UniProt P23836) | Sort-seq, measured: YFP reporter | E. coli | PhoQ-PhoP variant library, with: 10 µM Mg2+ | relative to: high Mg2+ state, higher = stronger signaling | fold induction | 7.95 |

A few entries again (mixed results):
| Molecule | target | assay | test system | conditions | how to read | measurement | result |
| --- | --- | --- | --- | --- | --- | --- | --- |
| PhoQ, residues 284 288 289 292 302 303 NLCILV | PhoP, residues 12 14 15 18 19 LYFRQ (Escherichia coli, UniProt P23836) | Sort-seq, measured: YFP reporter | E. coli | PhoQ-PhoP variant library, with: 10 µM Mg2+ | relative to: high Mg2+ state, higher = stronger signaling | fold induction | 7.95 |
